Published values gathered from unrelated publications.
Numbered parts are unrelated; each lists some results of a single study. Positions count from the first letter of the parent shown.

Study 1 — technique: DHFR PCA, deep sequencing; sample: yeast; with: (+)-ABA 0.032 µM; relative to: wild-type fitted maximum; direction: higher = stronger binding
Target: ABI1, truncated, D143A, DHFR fusion (Arabidopsis thaliana)
Notes: methotrexate growth selection, single substitutions
Parent: PYL1, truncated, DHFR fusion (Arabidopsis thaliana); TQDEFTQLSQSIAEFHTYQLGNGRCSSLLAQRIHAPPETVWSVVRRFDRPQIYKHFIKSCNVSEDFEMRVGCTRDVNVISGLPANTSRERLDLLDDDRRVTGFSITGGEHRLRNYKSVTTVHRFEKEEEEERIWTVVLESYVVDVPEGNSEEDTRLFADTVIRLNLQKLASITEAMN; partner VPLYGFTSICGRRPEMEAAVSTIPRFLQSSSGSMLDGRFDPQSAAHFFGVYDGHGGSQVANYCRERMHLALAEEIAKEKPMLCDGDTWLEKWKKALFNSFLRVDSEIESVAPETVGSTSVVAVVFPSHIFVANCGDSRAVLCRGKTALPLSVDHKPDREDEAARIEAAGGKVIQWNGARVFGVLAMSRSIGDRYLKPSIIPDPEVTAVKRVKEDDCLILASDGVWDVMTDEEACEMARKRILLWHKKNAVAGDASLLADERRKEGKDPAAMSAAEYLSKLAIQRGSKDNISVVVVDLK
For `V121M`, “relative binding score” read 7.12%.
`V78A` — result for “relative binding score”: 2.42%.
For `V118Y`, “relative binding score” read 4.05%.
Under “relative binding score”, `V43D` is recorded as 0.677%.
For `K126P`, “relative binding score” read 52.7%.
`L29W` — result for “relative binding score”: 0.0277%.

Study 2 — technique: protein-binding microarray; form: double-stranded DNA, one strand shown; sample: in vitro; concentration: 940 nM top; notes: 60-bp whole probe; with: salmon DNA 0.4 mg/ml; relative to: random background probes; direction: higher = stronger binding; constant ends, left off below: GCCTAGCAC … GTCTTGATTCGCTTGACGCTGCTG
Target: Interferon regulatory factor 5, full length, phosphomimetic (IRF5, Homo sapiens, UniProt Q13568-2, residues 1-514, S451D/S453D/S456D/S462D)
`GACGATATCCTACTGCTGACGTGCTAG`: “fitted relative affinity” 0.0404 z-score.
Under “fitted relative affinity”, `TTAGGTTCCCTTTTCCTTGAGTGCTAG` is recorded as 0.816 z-score.
Under “fitted relative affinity”, `TCACCTAGCCATTATGAGACTGTGCTA` is recorded as -0.0272 z-score.
Under “fitted relative affinity”, `GACGGTTTCGGGTATCGGGACGTGCTA` is recorded as 9.9 z-score.
Under “fitted relative affinity”, `ATCTTCATGAAATTTTAATAAGTGCTA` is recorded as -0.178 z-score.
`GACGATATCAGACTAGAGACGTGCTAG` — result for “fitted relative affinity”: -0.415 z-score.
For `GACGGTTTCGACTATCGGGGCGTGCTA`, “fitted relative affinity” read 8.65 z-score.
For `TTAGATTTCGGGCCTGGATTAGTGCTA`, “fitted relative affinity” read 0.332 z-score.

Study 3 — target: CCND1, cyclin fold, Cln2 fusion (human); technique: yeast growth competition, sequencing; sample: yeast; notes: weak parent motif; relative to: not given; direction: higher = stronger binding
Parent: BRCA2 docking peptide (human); PSIKRNLLNEFDR
`P1D`: “normalised enrichment score” 0.54.
Under “normalised enrichment score”, `N6A` is recorded as -0.062.
`F11W` — result for “normalised enrichment score”: -0.405.
Under “normalised enrichment score”, `D12E` is recorded as 0.467.
For `K4V`, “normalised enrichment score” read 0.352.
Under “normalised enrichment score”, `N6Q` is recorded as -0.0314.

Further values, each from its own experiment
With `PhoQ, residues 284 288 289 292 302 303 TSTLRA` the fold induction was 1.3 (PhoP, residues 12 14 15 18 19 SEGLL (Escherichia coli, UniProt P23836); Sort-seq, item: YFP reporter; E. coli; PhoQ-PhoP variant library, with: 10 µM Mg2+; relative to: high Mg2+ state, higher = stronger signaling).

Repeated from above (study 1):
Under “relative binding score”, `V43D` is recorded as 0.677%.
For `K126P`, “relative binding score” read 52.7%.
